Results gathered from unrelated publications.
Parts stem from different laboratories: compare values within a part only.
Chain of UniProt Q02763 (whole entry, looked up): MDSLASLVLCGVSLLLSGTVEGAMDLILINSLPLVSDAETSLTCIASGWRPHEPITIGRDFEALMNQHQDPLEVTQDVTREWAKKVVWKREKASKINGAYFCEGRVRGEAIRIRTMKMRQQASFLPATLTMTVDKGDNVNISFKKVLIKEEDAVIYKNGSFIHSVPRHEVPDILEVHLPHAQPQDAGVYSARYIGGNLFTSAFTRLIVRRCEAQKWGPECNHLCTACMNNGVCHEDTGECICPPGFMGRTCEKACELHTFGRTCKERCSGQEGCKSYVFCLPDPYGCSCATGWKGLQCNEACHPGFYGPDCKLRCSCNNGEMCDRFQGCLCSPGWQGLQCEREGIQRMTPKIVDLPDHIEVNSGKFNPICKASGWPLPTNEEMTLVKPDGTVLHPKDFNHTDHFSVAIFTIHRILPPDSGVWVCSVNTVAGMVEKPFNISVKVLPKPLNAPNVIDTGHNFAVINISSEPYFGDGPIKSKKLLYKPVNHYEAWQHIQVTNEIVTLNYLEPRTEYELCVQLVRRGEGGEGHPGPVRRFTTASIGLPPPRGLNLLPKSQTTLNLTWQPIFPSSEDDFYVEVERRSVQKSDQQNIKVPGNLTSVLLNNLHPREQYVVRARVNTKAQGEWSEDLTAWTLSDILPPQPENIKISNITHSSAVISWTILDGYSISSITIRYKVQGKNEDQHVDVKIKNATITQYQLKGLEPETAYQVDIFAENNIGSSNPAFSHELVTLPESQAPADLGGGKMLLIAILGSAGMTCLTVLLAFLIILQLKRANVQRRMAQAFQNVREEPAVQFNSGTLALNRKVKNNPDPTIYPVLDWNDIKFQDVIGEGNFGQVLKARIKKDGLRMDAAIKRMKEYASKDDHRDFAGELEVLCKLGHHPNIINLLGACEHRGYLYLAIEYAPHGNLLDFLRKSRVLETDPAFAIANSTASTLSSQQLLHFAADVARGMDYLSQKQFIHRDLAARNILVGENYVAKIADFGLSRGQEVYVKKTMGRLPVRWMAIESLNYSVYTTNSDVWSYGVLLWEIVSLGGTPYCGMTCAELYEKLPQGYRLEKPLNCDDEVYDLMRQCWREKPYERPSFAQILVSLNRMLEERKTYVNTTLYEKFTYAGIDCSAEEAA
Chain of UniProt P15056 (whole entry, unmodified, looked up): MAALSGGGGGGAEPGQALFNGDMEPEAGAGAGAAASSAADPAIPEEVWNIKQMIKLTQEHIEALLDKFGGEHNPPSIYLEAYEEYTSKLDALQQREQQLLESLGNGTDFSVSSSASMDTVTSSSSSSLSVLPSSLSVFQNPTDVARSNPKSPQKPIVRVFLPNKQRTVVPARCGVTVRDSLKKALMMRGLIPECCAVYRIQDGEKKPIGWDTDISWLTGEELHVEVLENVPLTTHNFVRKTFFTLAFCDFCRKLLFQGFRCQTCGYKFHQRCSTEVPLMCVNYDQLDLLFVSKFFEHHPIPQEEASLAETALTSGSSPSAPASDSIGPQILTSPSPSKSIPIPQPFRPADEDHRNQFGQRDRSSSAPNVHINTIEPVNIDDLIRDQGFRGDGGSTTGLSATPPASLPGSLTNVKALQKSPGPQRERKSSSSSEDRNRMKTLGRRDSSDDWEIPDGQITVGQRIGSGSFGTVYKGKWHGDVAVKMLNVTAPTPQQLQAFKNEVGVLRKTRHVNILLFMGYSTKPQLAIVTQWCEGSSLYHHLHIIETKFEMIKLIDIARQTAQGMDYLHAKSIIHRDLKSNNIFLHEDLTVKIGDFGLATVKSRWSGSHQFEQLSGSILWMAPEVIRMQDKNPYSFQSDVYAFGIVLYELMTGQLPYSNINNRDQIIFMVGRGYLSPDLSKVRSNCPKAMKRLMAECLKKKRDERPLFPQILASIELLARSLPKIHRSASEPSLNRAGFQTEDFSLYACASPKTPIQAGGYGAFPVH
Chain of UniProt P11309 (whole entry, looked up): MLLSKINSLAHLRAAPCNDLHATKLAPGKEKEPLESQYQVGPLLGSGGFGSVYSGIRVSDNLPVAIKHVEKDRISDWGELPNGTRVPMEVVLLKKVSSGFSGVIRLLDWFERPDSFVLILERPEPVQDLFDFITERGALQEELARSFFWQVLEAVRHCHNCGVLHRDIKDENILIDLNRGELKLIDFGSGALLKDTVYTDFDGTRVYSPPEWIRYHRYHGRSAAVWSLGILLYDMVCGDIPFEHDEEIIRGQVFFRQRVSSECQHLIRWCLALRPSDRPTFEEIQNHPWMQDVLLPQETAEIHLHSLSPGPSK
Chain of UniProt Q9HCP0 (whole entry, looked up): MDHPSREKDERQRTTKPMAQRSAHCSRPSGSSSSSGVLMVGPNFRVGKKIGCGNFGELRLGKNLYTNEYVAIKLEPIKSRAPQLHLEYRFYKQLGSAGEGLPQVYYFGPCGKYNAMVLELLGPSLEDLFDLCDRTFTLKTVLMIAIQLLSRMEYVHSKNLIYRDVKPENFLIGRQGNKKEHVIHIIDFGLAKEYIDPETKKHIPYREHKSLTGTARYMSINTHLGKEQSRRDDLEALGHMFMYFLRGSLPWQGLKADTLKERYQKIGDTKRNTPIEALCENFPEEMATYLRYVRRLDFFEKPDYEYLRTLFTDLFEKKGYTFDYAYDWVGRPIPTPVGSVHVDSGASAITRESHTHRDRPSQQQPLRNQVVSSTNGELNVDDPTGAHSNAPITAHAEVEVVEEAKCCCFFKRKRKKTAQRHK
Chain of UniProt P11802 (whole entry, looked up): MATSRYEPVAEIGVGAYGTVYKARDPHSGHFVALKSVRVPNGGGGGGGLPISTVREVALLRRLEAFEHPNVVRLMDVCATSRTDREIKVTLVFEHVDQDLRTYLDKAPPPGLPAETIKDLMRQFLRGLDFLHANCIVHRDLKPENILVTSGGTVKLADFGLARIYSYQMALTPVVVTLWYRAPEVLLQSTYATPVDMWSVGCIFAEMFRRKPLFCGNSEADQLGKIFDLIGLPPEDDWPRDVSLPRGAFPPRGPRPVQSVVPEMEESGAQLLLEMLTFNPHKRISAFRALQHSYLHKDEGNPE
Chain of UniProt Q9UIK4 (whole entry, looked up): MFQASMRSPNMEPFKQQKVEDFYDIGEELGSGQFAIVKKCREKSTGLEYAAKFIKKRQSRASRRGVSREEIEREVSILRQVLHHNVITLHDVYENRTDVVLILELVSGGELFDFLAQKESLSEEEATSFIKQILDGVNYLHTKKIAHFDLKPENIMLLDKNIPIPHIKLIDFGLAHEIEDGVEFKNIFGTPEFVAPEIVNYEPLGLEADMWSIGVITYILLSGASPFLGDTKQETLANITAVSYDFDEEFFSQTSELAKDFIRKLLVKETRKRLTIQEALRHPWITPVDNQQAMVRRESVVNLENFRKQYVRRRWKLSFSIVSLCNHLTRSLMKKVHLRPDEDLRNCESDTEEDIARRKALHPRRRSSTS
Chain of UniProt O75582 (whole entry, looked up): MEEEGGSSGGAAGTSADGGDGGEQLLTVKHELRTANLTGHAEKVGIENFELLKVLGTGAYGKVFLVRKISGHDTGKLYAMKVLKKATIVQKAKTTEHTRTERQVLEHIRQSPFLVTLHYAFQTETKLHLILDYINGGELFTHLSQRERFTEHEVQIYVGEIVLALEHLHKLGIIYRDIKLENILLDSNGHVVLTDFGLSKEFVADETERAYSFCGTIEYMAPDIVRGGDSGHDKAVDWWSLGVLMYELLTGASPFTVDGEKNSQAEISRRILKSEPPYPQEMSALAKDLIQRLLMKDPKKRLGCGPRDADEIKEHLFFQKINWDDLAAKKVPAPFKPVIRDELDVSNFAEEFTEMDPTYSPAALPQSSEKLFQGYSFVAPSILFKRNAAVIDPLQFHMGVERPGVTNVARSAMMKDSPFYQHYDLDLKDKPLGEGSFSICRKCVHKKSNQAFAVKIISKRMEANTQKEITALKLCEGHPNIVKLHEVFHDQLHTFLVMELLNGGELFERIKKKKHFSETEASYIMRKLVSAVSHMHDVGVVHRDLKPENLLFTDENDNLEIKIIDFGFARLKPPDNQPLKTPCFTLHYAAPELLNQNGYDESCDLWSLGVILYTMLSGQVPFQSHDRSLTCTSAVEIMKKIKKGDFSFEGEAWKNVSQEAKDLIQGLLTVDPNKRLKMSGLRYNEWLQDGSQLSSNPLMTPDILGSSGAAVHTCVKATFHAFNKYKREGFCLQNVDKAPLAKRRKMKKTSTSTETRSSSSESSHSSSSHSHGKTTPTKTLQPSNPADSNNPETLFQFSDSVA

Set 1
Target: Tyrosine-protein kinase Lyn (LYN, Homo sapiens, UniProt P07948)
Chain of UniProt P07948 (whole entry, looked up): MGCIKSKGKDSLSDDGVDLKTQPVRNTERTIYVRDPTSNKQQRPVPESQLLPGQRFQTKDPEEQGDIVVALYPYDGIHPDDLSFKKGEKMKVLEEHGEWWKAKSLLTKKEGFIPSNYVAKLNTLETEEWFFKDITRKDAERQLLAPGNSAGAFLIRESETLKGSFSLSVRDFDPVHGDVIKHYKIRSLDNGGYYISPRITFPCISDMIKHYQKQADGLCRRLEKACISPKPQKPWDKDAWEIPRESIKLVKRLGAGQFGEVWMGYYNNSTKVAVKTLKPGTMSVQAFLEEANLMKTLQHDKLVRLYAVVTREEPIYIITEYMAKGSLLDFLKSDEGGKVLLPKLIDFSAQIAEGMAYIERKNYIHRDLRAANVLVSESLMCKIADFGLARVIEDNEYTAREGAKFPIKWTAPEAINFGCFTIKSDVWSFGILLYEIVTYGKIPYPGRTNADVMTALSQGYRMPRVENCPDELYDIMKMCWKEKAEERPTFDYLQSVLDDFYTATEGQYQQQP
Observed: enzyme activity
Action: inhibitor
Tested at: 0.5 µM
Reference: control
COc1ccc(CNC(=O)Nc2ncc([N+](=O)[O-])s2)cc1 has a remaining activity of 91.4%.
O=C1NC(=O)C(c2cn(CCCO)c3ncccc23)=C1c1cnccn1 has a remaining activity of 112%.
Nc1[nH]nc2nc3ccccc3nc12 gave a remaining activity of 97%.
C#Cc1cccc(Nc2ncnc3cc(OCCOC)c(OCCOC)cc23)c1 has a remaining activity of 72.5%.
The remaining activity of Cn1sc(=O)n(Cc2ccccc2)c1=O is reported as 90.8%.
Cc1cccc(-c2[nH]c(C(C)(C)C)nc2-c2ccc3c(c2)OCO3)n1 gave a remaining activity of 99.2%.
For CN(C)c1ccc(C=C2C(=O)Nc3ccccc32)cc1, the remaining activity was 108%.
O=S(=O)(c1cccc2cnccc12)N1CCCNCC1 gave a remaining activity of 106%.
Cn1c2ccccc2c2c3c(c4c5ccccc5n(CCC#N)c4c21)CNC3=O has a remaining activity of 94.4%.
COc1ccc(C(=O)Nc2sc3c(c2C(N)=O)CCCC3)cc1OC has a remaining activity of 93.5%.
Nc1ccc2ncnc(NCCc3ccc(Oc4ccccc4)cc3)c2c1 gave a remaining activity of 103%.
Cc1nc(-c2ccccc2)c(-c2ccncc2)o1 gave a remaining activity of 97.4%.
The remaining activity of O=C(CCCc1ccc(-c2ccccc2F)cc1)Nc1ccc(O)cc1 is reported as 102%.
The remaining activity of O=C1NC(=O)C(c2cn(CCCn3ccnc3)c3ccccc23)=C1Nc1ccccc1 is reported as 96.4%.
For NCCNc1ncc(C(N)=O)c(Nc2cccc(C(F)(F)F)c2)n1, the remaining activity was 74.5%.

Set 2
Organism: Sarcocystis neurona
Observed: parasite growth
Tested at: 10 µM
Notes: secondary screen
With CC(=O)SCC(Cc1ccccc1)C(=O)NCC(=O)OCc1ccccc1 (centres unmarked) the inhibition was -59.5%.
The inhibition of CO[C@H]1O[C@@H]2O[C@@]3(C)CC[C@H]4[C@H](C)CC[C@@H]([C@H]1C)[C@@]24OO3 is reported as 54.8%.
The inhibition of CC(C)c1nc(CN(C)C(=O)N[C@H](C(=O)N[C@@H](Cc2ccccc2)C[C@H](O)[C@H](Cc2ccccc2)NC(=O)OCc2cncs2)C(C)C)cs1 is reported as 11.6%.
CCCCCCCCCCC[C@@H](C[C@@H]1OC(=O)[C@H]1CCCCCC)OC(=O)[C@H](CC(C)C)NC=O has an inhibition of 21.4%.
With Cc1nccn1CC1CCc2c(c3ccccc3n2C)C1=O (centres unmarked) the inhibition was -35.5%.

Set 3
Host: mouse
Matrix: microsomes or S9
Tested at: 2 µM
Time: 0.5 h
The remaining compound of Cc1ccc(Cl)cc1NC(=O)Cn1ncc2ccccc2c1=O is reported as 2.02%.
For Cc1ccc(/C(Br)=C/CN(C)C)cc1, the remaining compound was 7.82%.
For Cc1cc2cc(CCNC(=O)CC(C)(C)C)c(=O)[nH]c2cc1C, the remaining compound was 0.00378%.
With O=C(NCc1ccc(F)cc1)c1nc2c(cnn2-c2ccc(F)cc2)c(=O)[nH]1 the remaining compound was 25.7%.
With CCc1ccc2ncc3c(-c4ccc(F)cc4)n[nH]c3c2c1 the remaining compound was 28.7%.

Set 4
SMILES: NS(=O)(=O)c1cc(NC(=O)C2(c3ccccc3Cl)CC2)ccc1Oc1cccc(Cl)c1
Observed: cell-free assay
Technique: competition with immobilised ligand
Tested at: 1 µM
For BRAF (Homo sapiens, UniProt P15056, V600E): remaining binding read 74%.
It gave 90% for remaining binding (Ribosomal protein S6 kinase alpha-5, C-terminal kinase domain (RPS6KA5, Homo sapiens, UniProt O75582)).
For CDK4 (Homo sapiens, UniProt P11802): remaining binding read 100%.
PIM1 (Homo sapiens, UniProt P11309) — remaining binding: 94%.
For CSNK1G1 (Homo sapiens, UniProt Q9HCP0): remaining binding read 90%.
It gave 100% for remaining binding (DAPK2 (Homo sapiens, UniProt Q9UIK4)).
TEK (Homo sapiens, UniProt Q02763) — remaining binding: 69%.

Repeated from above (set 1):
For CN(C)c1ccc(C=C2C(=O)Nc3ccccc32)cc1, the remaining activity was 108%.
C#Cc1cccc(Nc2ncnc3cc(OCCOC)c(OCCOC)cc23)c1 has a remaining activity of 72.5%.
The remaining activity of Cn1sc(=O)n(Cc2ccccc2)c1=O is reported as 90.8%.
Cc1cccc(-c2[nH]c(C(C)(C)C)nc2-c2ccc3c(c2)OCO3)n1 gave a remaining activity of 99.2%.
